Experimental data collected from several papers.
A part holds a random share of what one study measured. “And” joins repeats or separate records; there may be more than shown.
Chain of UniProt P18089 (whole entry, looked up): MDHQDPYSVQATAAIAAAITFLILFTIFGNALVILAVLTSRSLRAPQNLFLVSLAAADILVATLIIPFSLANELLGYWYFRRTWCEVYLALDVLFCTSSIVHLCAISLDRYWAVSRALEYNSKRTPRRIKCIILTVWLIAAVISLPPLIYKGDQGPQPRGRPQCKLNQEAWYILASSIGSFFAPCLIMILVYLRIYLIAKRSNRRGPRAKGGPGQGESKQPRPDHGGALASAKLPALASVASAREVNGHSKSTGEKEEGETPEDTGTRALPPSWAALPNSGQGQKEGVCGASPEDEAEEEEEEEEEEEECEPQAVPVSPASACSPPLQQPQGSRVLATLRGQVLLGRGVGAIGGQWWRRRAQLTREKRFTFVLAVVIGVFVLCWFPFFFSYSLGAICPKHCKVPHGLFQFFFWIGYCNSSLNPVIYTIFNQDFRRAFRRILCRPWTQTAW
Chain of UniProt P25021 (whole entry, looked up): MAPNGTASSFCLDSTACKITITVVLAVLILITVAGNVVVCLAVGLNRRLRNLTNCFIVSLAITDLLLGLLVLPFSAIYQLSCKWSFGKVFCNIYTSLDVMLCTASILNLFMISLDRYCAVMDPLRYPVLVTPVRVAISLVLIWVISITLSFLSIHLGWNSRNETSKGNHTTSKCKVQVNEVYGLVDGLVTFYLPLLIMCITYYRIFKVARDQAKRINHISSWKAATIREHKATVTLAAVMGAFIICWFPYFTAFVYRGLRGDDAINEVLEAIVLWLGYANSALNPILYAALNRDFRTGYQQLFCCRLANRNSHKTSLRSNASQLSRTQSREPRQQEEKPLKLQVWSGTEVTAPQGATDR
Chain of UniProt P46098 (whole entry, looked up): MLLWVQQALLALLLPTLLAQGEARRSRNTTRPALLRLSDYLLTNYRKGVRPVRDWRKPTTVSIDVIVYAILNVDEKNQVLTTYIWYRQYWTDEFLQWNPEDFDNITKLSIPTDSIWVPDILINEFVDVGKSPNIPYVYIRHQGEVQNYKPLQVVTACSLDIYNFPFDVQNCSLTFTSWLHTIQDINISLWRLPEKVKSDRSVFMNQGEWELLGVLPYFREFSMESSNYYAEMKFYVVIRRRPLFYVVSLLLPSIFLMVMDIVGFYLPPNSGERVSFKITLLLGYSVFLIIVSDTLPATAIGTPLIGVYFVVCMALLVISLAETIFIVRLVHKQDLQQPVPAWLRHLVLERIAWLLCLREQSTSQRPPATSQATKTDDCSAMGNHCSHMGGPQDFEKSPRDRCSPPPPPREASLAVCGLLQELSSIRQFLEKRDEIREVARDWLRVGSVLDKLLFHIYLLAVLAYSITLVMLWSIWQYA
Chain of UniProt P18825 (whole entry, looked up): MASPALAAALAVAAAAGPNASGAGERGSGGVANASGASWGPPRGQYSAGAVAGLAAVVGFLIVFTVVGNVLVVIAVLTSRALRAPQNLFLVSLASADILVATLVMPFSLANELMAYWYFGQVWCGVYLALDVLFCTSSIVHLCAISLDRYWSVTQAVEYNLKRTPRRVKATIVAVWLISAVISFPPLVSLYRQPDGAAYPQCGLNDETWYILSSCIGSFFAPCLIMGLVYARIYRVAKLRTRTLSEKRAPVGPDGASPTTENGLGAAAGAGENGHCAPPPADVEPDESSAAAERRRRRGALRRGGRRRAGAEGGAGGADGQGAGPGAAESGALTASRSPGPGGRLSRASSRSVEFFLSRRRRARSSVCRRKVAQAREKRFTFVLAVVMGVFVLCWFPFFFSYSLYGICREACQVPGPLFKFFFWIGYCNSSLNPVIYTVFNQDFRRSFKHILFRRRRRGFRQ
Chain of UniProt P13945 (whole entry, looked up): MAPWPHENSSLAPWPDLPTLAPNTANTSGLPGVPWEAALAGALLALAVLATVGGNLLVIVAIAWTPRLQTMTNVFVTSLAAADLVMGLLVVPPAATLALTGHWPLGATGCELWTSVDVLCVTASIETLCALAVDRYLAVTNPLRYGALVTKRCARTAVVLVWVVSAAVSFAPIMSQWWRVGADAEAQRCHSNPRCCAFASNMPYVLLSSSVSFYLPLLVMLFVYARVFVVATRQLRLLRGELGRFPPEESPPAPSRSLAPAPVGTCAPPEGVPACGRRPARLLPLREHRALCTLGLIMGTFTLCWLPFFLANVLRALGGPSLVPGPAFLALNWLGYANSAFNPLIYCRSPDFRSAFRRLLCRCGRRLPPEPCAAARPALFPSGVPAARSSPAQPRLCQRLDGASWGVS
Chain of UniProt P08172 (whole entry, looked up): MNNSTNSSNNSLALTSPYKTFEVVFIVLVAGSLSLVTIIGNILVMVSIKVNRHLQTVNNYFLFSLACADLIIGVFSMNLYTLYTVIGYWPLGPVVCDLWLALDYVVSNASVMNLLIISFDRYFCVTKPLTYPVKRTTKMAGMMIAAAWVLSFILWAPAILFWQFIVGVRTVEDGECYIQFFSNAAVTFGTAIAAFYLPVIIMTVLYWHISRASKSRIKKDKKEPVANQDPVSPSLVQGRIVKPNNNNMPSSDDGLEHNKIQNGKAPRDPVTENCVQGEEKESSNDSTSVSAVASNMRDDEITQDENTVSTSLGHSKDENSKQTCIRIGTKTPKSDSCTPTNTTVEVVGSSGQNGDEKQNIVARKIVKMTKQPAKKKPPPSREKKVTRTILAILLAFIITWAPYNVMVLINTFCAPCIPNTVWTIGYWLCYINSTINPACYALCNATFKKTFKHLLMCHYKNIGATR
Chain of UniProt Q9H3N8 (whole entry, looked up): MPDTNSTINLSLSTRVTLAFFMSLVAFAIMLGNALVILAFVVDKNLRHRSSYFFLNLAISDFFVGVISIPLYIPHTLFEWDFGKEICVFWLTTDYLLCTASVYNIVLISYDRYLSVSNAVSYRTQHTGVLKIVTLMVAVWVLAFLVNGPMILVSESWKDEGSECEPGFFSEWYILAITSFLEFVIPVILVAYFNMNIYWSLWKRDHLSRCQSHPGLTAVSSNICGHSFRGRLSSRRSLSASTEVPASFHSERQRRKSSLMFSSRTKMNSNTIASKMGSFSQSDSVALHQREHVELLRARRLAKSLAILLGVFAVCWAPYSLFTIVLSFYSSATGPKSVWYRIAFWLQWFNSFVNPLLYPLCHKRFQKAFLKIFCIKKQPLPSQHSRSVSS
Chain of UniProt P35367 (whole entry, looked up): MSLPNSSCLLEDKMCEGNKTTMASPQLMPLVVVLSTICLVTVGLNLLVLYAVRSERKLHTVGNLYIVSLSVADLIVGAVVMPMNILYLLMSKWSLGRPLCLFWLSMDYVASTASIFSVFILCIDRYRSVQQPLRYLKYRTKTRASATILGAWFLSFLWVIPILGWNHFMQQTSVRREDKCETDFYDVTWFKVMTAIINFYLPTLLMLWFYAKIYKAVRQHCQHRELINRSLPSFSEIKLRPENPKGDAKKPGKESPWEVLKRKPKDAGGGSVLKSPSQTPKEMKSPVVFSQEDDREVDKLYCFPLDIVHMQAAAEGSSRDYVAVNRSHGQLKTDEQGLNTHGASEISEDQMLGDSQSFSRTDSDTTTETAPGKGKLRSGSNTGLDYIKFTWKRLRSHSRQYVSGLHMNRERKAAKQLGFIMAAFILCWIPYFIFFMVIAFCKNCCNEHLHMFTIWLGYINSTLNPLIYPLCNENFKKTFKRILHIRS

Set 1
Target: Calcium/calmodulin-dependent protein kinase type II subunit alpha (CAMK2A, Homo sapiens, UniProt Q9UQM7)
Chain of UniProt Q9UQM7 (whole entry, looked up): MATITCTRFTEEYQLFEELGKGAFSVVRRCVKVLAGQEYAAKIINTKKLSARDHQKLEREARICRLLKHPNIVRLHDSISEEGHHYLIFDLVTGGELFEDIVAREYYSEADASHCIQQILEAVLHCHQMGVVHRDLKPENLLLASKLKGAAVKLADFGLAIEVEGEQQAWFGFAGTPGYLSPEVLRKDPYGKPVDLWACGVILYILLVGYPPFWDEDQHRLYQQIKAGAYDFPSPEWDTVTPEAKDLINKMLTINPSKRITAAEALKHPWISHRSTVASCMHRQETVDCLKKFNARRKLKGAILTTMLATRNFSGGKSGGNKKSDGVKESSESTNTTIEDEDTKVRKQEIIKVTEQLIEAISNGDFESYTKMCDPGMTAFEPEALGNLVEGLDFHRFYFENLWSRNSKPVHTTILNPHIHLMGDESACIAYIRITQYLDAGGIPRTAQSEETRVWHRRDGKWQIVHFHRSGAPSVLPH
Read-out: enzyme activity
Mode: inhibitor
Concentration: 10 µM
Structure (SMILES) | inhibition
O[C@H]1CCN2Cc3ccccc3N=C12 | -15%
C[C@H](CCC(=O)O)[C@H]1CC[C@H]2[C@@H]3CC[C@@H]4C[C@H](O)CC[C@]4(C)[C@H]3CC[C@]12C | -4%
C[C@H]1O[C@@H](n2cc(F)c(=O)[nH]c2=O)[C@H](O)[C@@H]1O | 1%
CC[C@H](CC[C@@H](C)[C@H]1CC[C@H]2[C@@H]3CC=C4C[C@@H](O[C@@H]5O[C@H](CO)[C@@H](O)[C@H](O)[C@H]5O)CC[C@]4(C)[C@H]3CC[C@]12C)C(C)C | -27%
CCC(C(=O)O)C(=O)O | -3%
N[C@@H](CCC(=O)N[C@@H](CS)C(=O)O)C(=O)O | 24%
CCC1(C)CC(=O)NC1=O (stereo not drawn) | 1%
NC(N)=NCCCC[C@H](N)C(=O)O | -0.19% and -0.06%
OC[C@H]1O[C@@H](O[C@@H]2[C@@H](CO)OC(O)(CO)[C@H]2O)[C@H](O)[C@@H](O)[C@H]1O (mixture of isomers) | -12%

Set 2
SMILES: CC(C)n1cnc(-c2ccc(F)cc2)c1-c1ncc(C(=O)Nc2ccc(N3CCN(C)CC3)cc2)[nH]1
Technique: phase 2a trial
Host: idiopathic pulmonary fibrosis patients
dose | notes | patients with cholecystitis [%]
30 mg once daily | adverse event grade 2 | 0
30 mg once daily | adverse event grade 1 | 0
dose not given | adverse event grade 2, all dose arms pooled | 0
dose not given | adverse event grade 4, all dose arms pooled | 0
60 mg once daily | adverse event grade 1 | 0
dose not given | adverse event grade 3, all dose arms pooled | 0
60 mg once daily | adverse event grade 4 | 0
30 mg once daily | adverse event grade 5 | 0
60 mg once daily | adverse event grade 3 | 0

Set 3
SMILES: C=CCc1ccc(O)c(-c2cc(CC=C)ccc2O)c1
Target: Anoctamin-1 (ANO1, Homo sapiens, UniProt Q5XXA6, del476-501)
Chain of UniProt Q5XXA6 (whole entry, unmodified, looked up): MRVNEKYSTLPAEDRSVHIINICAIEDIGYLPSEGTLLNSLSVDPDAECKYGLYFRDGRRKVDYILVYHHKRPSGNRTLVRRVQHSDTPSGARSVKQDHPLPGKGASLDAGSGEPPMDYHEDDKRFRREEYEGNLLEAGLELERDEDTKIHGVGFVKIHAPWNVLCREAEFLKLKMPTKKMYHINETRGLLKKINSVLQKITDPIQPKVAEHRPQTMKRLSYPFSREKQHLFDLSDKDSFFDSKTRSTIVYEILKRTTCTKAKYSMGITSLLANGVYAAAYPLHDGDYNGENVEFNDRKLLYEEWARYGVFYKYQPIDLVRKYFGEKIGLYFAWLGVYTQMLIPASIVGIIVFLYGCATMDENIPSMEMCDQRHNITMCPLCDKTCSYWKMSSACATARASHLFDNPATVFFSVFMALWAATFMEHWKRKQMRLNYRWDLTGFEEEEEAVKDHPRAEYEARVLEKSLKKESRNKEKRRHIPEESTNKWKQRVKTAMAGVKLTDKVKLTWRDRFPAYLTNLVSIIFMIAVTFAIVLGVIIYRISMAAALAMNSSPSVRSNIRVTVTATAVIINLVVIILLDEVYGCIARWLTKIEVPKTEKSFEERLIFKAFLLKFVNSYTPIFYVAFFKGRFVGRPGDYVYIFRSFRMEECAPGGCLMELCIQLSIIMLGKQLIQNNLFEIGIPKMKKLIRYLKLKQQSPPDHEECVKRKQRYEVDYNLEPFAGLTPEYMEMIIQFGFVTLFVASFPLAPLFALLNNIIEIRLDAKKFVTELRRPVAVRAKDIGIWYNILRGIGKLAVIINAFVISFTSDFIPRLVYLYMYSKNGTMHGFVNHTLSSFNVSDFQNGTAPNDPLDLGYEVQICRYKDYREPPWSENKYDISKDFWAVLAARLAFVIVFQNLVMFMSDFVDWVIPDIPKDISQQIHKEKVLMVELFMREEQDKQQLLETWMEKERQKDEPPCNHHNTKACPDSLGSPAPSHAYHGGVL
Read-out: chloride current
Technique: whole-cell patch clamp
concentration | notes | with | normalised current
100 µM | -20 mV, 300 nM free Ca2+ | honokiol and magnolol 3 µM | -0.0047
1 µM | -40 mV, 300 nM free Ca2+ | – | -0.0745
10 µM | -60 mV, 300 nM free Ca2+ | – | -0.0645
30 µM | -100 mV, 300 nM free Ca2+ | – | -0.0532
3 µM | -20 mV, 300 nM free Ca2+ | – | -0.0458
30 µM | 100 mV, 300 nM free Ca2+ | – | 0.501
1 µM | -100 mV, 300 nM free Ca2+ | – | -0.103
10 µM | 80 mV, 300 nM free Ca2+ | – | 0.436
100 µM | 0 mV, 300 nM free Ca2+ | – | -0.000189

Set 4
SMILES: N#CN1CC[C@@H](C(=O)Nc2nc3c(s2)CN(C(=O)CN=[N+]=[N-])CC3)C1
Concentration: 10 µM
target | read-out | technique | inhibition [%]
Alpha-2B adrenergic receptor (ADRA2B, Homo sapiens, UniProt P18089) | binding | radioligand binding | 6.46
Histamine H1 receptor (HRH1, Homo sapiens, UniProt P35367) | binding | radioligand binding | 0.43
5-hydroxytryptamine receptor 3A (HTR3A, Homo sapiens, UniProt P46098) | cell-free assay | – | 0.95
Beta-3 adrenergic receptor (ADRB3, Homo sapiens, UniProt P13945) | binding | radioligand binding | -15.2
Alpha-2C adrenergic receptor (ADRA2C, Homo sapiens, UniProt P18825) | binding | radioligand binding | 4.21
Histamine H2 receptor (HRH2, Homo sapiens, UniProt P25021) | binding | radioligand binding | 3.43
5-hydroxytryptamine receptor 7 (HTR7, Homo sapiens, UniProt P34969) | binding | radioligand binding | -1.05
Muscarinic acetylcholine receptor M4 (CHRM4, Homo sapiens, UniProt P08173) | binding | radioligand binding | -1.43
Alpha-1D adrenergic receptor (ADRA1D, Homo sapiens, UniProt P25100) | binding | radioligand binding | 0.34
Histamine H4 receptor (HRH4, Homo sapiens, UniProt Q9H3N8) | binding | radioligand binding | -10.9
D(1A) dopamine receptor (DRD1, Homo sapiens, UniProt P21728) | binding | radioligand binding | 8.27
Muscarinic acetylcholine receptor M2 (CHRM2, Homo sapiens, UniProt P08172) | binding | radioligand binding | -12

Excerpt of the above (set 4):
target | read-out | technique | inhibition [%]
Alpha-2B adrenergic receptor (ADRA2B, Homo sapiens, UniProt P18089) | binding | radioligand binding | 6.46
Histamine H1 receptor (HRH1, Homo sapiens, UniProt P35367) | binding | radioligand binding | 0.43
5-hydroxytryptamine receptor 3A (HTR3A, Homo sapiens, UniProt P46098) | cell-free assay | – | 0.95
Beta-3 adrenergic receptor (ADRB3, Homo sapiens, UniProt P13945) | binding | radioligand binding | -15.2
